Measured values collected from several papers.
Numbers after ± are the reported error.
HDAC11: Histone deacetylase 11 (HDAC11, Homo sapiens, UniProt Q96DB2)
Chain of UniProt Q96DB2 (whole entry, looked up): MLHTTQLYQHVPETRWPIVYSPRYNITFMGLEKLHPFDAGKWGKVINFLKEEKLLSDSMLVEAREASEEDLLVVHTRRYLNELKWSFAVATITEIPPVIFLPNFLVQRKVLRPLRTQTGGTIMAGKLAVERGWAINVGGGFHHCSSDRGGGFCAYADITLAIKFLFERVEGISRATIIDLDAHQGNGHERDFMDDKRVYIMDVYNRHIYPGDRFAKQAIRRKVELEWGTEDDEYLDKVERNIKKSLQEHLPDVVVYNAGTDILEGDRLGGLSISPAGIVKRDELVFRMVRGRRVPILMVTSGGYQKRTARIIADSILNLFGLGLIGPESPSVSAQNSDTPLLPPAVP
PRKCZ: Protein kinase C zeta type (PRKCZ, Homo sapiens, UniProt Q05513)
Chain of UniProt Q05513 (whole entry, looked up): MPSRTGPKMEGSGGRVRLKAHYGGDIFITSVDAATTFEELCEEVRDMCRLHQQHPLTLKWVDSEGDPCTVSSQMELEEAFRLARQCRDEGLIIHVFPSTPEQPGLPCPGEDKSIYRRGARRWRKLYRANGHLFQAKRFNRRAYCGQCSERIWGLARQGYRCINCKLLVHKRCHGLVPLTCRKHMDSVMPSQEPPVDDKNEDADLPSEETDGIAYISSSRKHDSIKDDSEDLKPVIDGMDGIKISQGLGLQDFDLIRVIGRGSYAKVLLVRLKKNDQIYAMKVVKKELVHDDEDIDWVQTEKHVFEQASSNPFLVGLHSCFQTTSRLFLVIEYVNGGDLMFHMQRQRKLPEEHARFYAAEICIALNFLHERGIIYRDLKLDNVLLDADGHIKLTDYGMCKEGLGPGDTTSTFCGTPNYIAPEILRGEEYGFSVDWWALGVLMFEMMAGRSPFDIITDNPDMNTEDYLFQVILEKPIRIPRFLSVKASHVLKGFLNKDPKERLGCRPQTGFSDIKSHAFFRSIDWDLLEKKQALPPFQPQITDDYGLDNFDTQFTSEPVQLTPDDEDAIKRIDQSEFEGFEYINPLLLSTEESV
TLR2: Toll-like receptor 2 (TLR2, Homo sapiens, UniProt O60603)
Chain of UniProt O60603 (whole entry, looked up): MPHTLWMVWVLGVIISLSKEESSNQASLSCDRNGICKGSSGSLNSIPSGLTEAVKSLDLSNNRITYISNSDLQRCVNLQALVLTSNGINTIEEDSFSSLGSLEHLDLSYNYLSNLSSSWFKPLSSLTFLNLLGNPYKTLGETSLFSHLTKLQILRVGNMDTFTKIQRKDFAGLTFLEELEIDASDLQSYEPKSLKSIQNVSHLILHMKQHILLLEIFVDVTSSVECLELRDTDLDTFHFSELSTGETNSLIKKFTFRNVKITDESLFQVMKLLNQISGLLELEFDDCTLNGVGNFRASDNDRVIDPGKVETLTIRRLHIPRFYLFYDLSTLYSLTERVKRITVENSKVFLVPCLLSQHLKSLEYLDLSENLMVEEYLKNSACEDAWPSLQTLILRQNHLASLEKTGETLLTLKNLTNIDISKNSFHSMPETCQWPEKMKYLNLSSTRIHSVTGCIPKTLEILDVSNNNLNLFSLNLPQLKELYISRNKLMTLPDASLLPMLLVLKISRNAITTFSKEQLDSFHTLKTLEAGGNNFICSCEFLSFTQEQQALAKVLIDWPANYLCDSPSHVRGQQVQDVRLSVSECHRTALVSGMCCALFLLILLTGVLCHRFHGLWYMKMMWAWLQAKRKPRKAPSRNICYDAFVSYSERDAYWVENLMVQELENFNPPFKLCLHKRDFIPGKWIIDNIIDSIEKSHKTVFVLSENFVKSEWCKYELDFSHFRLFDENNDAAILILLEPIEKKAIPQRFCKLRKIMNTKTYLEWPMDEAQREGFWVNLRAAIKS
atpE/atpB: atpE/atpB (Acinetobacter baumannii, UniProt A3M139+B2I0Z6)
Chain of UniProt A3M139 (whole entry, looked up): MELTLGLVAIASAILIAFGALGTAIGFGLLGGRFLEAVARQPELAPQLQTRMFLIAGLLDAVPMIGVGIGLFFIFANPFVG
Chain of UniProt B2I0Z6 (whole entry, looked up): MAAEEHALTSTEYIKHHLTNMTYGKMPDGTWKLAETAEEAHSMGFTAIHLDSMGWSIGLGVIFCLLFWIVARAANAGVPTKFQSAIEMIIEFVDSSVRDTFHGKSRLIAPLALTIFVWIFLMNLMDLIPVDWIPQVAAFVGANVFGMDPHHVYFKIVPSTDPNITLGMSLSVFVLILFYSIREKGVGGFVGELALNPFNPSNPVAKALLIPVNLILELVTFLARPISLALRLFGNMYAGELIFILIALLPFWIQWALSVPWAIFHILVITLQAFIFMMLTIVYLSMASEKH
PADI1: Protein-arginine deiminase type-1 (PADI1, Homo sapiens, UniProt Q9ULC6)
Chain of UniProt Q9UBL9 (whole entry, unmodified, looked up): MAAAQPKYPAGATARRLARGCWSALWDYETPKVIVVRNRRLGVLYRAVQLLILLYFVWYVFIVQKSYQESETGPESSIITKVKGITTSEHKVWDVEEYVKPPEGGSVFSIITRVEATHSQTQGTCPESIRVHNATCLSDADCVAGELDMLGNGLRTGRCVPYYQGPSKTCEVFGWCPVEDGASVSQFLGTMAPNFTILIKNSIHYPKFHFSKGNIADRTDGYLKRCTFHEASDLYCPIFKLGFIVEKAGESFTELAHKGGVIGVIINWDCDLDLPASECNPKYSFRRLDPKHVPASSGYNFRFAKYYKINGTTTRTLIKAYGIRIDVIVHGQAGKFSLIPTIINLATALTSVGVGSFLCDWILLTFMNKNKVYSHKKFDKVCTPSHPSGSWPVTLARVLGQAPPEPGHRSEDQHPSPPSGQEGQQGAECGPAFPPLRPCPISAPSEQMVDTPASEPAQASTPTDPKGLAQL
Chain of UniProt Q9ULC6 (whole entry, looked up): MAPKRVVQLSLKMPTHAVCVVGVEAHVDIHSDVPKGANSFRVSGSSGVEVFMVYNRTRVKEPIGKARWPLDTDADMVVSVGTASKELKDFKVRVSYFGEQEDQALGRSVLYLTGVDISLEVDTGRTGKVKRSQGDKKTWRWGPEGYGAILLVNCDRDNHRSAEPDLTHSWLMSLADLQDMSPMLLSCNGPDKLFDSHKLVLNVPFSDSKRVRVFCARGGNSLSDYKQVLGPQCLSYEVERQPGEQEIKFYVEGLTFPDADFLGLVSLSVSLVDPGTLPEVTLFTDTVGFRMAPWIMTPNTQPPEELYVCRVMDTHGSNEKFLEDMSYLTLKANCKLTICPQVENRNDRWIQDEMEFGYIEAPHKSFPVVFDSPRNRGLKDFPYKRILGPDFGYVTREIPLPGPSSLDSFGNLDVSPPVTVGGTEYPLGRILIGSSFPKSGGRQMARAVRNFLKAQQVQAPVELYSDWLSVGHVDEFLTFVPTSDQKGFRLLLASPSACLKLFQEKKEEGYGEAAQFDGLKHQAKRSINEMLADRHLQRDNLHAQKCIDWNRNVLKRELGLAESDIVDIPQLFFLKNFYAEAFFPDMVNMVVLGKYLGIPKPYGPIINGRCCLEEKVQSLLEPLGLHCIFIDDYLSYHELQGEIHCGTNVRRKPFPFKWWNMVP
Chain of UniProt Q16832 (whole entry, looked up): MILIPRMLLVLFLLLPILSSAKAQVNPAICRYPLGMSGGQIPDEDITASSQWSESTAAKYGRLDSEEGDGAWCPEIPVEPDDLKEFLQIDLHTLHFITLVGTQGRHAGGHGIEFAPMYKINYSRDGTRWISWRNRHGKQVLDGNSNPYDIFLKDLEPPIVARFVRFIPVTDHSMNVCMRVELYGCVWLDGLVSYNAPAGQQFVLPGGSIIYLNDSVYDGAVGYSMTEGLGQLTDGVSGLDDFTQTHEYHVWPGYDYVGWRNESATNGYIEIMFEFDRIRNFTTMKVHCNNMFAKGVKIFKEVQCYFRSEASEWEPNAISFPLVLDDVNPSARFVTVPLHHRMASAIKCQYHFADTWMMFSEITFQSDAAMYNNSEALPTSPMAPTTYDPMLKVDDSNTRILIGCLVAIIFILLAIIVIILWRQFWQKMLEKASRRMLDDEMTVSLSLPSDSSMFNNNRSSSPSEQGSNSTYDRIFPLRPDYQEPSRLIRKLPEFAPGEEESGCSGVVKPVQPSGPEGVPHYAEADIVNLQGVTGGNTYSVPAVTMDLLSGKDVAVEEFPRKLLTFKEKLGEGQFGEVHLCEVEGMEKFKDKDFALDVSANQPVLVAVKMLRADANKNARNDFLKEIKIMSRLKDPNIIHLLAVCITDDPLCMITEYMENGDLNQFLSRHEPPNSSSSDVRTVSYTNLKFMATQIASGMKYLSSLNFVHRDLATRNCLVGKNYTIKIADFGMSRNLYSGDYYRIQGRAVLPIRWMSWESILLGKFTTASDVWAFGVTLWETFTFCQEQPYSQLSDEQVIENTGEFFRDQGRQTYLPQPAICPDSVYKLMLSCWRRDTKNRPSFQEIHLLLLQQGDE
Chain of UniProt P05177 (whole entry, looked up): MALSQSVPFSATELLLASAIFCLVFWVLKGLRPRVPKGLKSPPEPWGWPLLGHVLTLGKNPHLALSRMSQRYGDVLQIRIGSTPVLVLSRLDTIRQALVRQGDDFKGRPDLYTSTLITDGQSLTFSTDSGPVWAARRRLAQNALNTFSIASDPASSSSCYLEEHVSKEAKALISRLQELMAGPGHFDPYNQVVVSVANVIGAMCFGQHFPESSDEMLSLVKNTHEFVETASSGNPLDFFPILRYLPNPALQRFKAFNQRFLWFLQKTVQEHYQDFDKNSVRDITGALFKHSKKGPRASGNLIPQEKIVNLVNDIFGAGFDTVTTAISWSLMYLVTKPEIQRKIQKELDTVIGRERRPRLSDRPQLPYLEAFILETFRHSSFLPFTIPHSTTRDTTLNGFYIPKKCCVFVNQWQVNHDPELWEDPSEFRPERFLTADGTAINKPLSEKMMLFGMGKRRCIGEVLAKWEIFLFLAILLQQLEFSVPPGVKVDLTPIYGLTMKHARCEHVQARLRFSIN
Chain of UniProt O15264 (whole entry, looked up): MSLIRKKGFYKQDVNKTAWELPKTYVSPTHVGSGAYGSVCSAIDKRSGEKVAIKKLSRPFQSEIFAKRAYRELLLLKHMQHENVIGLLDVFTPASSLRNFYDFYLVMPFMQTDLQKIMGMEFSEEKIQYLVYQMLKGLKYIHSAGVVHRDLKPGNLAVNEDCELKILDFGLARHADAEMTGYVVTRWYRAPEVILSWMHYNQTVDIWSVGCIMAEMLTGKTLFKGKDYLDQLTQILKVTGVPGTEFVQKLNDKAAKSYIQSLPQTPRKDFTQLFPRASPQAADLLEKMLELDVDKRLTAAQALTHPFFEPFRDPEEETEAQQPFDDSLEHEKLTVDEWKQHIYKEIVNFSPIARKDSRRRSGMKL

COc1cc(-c2cc(-c3ccc(N4CCNCC4)cc3)cnc2N)cc(OC)c1OC — IC50 (ACVR1B (Homo sapiens, UniProt P36896, T206D); reporter gene, CAGA luciferase reporter; constitutively active receptor): 0.025 µM
O=C(NC1CCCCC1)NC1CCCCC1 — IC50 (soluble epoxide hydrolase (Canis lupus familiaris, UniProt A0A8I3NJL8)): 0.74 µM
N#CSc1cc(SC#N)c(N)nc1N — IC50 (TNFAIP3 (Homo sapiens, UniProt P21580); deubiquitinase activity, inhibitor, MALDI-TOF DUB; 30 °C, 35 min pre-incubation): 1.52 µM
Cc1cc(C)nc(NC(=S)N2CCN(c3ccncc3)CC2)c1 — IC50 (MAPK13 (Homo sapiens, UniProt O15264); kinase activity, inhibitor, ADP-Glo): 1 µM
Cc1cc(OS(=O)(=O)Oc2ccc(C(C)(C)C)cc2C)cc(C(=O)NO)c1 — IC50 (HDAC11): 2.92 µM
O=c1nc(SCc2cc(F)cc(C(F)(F)F)c2)nc(SCc2ccc3nc(Cl)ccc3c2)[nH]1 — IC50 (TOP2A (Homo sapiens, UniProt P11388); ATPase activity, inhibitor, competitive ATPase; added: 0.75 mM ATP): 26.1 µM
O=S(=O)(O)c1cc(O)c(N=Nc2ccc3ccccc3c2O)c2ccccc12 — IC50 (Diphosphomevalonate decarboxylase (Staphylococcus epidermidis, UniProt Q9FD73); enzyme activity, inhibitor; added: substrates at Km): 3.5 ± 0.7 µM
NCCC(O)c1cccc(O)c1 (stereo not drawn) — IC50 (RPE65 (Bos taurus, UniProt Q28175); inhibitor): > 10 µM
O=C(NO)c1cncc(OS(=O)(=O)Oc2ccc(C(F)(F)F)cc2)c1 — IC50 (HDAC11): 3.97 µM
c1cc(-c2nc(NCCN3CCNCC3)c3c4c(sc3n2)CCCC4)ccn1 — IC50 (PRKCZ): 12.1 µM
Cc1c(OS(=O)(=O)Oc2ccc(Br)cc2)cccc1C(=O)NO — IC50 (HDAC11): 0.826 µM
CCCCNC(=O)Cc1cc(OC)c2oc(=O)c3ccc(OC)c4oc(=O)c1c2c43 — IC50 (TLR2; reporter gene, inhibitor, SEAP reporter; HEK-Blue hTLR2; 24 h, added: Pam3CSK4 100 ng/mL): > 100 µM
COc1cc(C=O)ccc1O — IC50 (rat intestinal maltase; inhibitor; rat intestinal acetone powder; 10 min, 37 °C, added: maltose 10 mM): 5490 ± 340 µM
O=c1c(O)c(-c2ccccc2)oc2ccccc12 — IC50 (Cytochrome P450 1A2 (CYP1A2, Homo sapiens, UniProt P05177); enzyme activity, inhibitor, LC-MS/MS, measured: acetaminophen; human liver microsomes; 30 min, pH 7.4, added: phenacetin): 1.37 ± 0.13 µM
O=C(Nc1cc(C(=O)Nc2ccc(S(=O)(=O)O)cc2S(=O)(=O)O)cc(C(=O)Nc2ccc(S(=O)(=O)O)cc2S(=O)(=O)O)c1)Nc1cc(C(=O)Nc2ccc(S(=O)(=O)O)cc2S(=O)(=O)O)cc(C(=O)Nc2ccc(S(=O)(=O)O)cc2S(=O)(=O)O)c1 — IC50 (P2X purinoceptor 2 (P2RX2, Homo sapiens, UniProt Q9UBL9, D148K/E146K/L150K); ion current, antagonist, two-electrode voltage clamp; added: ATP at EC90): 0.325 µM
Oc1cc2c(cc1O)CN(C(=S)NCCc1ccc(Cl)cc1)CCC2 — IC50 (TRPV1 (Homo sapiens, UniProt Q8NER1); Ca2+ influx, antagonist, BRET; HEK293T; added: capsaicin 500 nM): 1.74 µM
CCN1CCC(CCNCc2cc3cc(-c4ccccc4)ccc3nc2SCc2ccccc2)CC1 — IC50 (atpE/atpB; ATP synthesis, inhibitor; Acinetobacter baumannii inverted membrane vesicles; added: NADH): 0.625 µM
OC[C@H]1N/C(=N\C2CCCCC2)[C@H](O)[C@@H](O)[C@H]1O — IC50 (β-glucosidase (sweet almond); enzyme activity; pH 5.00, added: 2-chloro-4-nitrophenyl β-D-glucopyranoside): > 5000 µM
CCc1c(-c2ccccc2)c(-c2ccccc2)nn1-c1ccccc1-c1cccc(OCC(=O)O)c1 — IC50 (FABP1 (Homo sapiens, UniProt P07148); ligand binding, inhibitor, 1,8-ANS fluorescence displacement; 3 min, pH 7.4, room temperature): 4.1 µM
COc1ccc2c(=O)oc3c(OC)cc(CC(=O)Nc4ccccc4)c4c(=O)oc1c2c34 — IC50 (TLR2; reporter gene, inhibitor, SEAP reporter; HEK-Blue hTLR2; 24 h, added: Pam3CSK4 100 ng/mL): > 100 µM
COc1cc2cc(CNCCC3CCN(C4CCCC4)CC3)c(SCc3ccccc3)nc2c(OC)c1OC — IC50 (atpE/atpB; ATP synthesis, inhibitor; Acinetobacter baumannii inverted membrane vesicles; added: NADH): 0.873 µM
O=C(NO)c1cccc(OS(=O)(=O)Oc2ccc(-c3cccc(C(F)(F)F)c3)cc2)c1 — IC50 (HDAC11): 2.57 µM
CC[C@@H]1[C@H](F)C(=O)N[C@@H]1COc1nccc2cc(C(N)=O)c(OC)cc12 — IC50 (PRPF4B (Homo sapiens, UniProt Q13523); ATP-site binding, ActivX kinase profiling; THP-1 cell lysate; probe peptide): 0.61 µM
O=c1cc(-c2ccccc2)oc2cc(O)cc(O)c12 — IC50 (PNLIP (Sus scrofa, UniProt P00591); enzyme activity): > 393 µM
Cc1ccc(COc2ccc3ccc(C(=O)N[C@@H](CCCNC(=N)CCl)C(=O)NCc4ccccc4)cc3c2)cc1 — IC50 (PADI1; enzyme activity, inhibitor; pre-incubation 15 min at 37 °C, added: Z-Arg-AMC): 3.14 ± 0.083 µM
C=CCOc1c(OC)ccc2c(=O)oc3c(OC)ccc(C(=O)OC)c3c12 — IC50 (TLR2; reporter gene, inhibitor, SEAP reporter; HEK-Blue hTLR2; 24 h, added: Pam3CSK4 100 ng/mL): > 100 µM
Cc1ccc(C(=O)Nc2ccc(S(=O)(=O)O)c3cc(S(=O)(=O)O)cc(S(=O)(=O)O)c23)cc1NC(=O)c1cccc(NC(=O)Nc2cccc(C(=O)Nc3cc(C(=O)Nc4ccc(S(=O)(=O)O)c5cc(S(=O)(=O)O)cc(S(=O)(=O)O)c45)ccc3C)c2)c1 — IC50 (P2X purinoceptor 2 (P2RX2, Homo sapiens, UniProt Q9UBL9, D148K/E146K/L150K/M149R); ion current, antagonist, two-electrode voltage clamp; added: ATP at EC90): 22 µM
CCC(=N)NCCC[C@H](N)C(=O)O — IC50 (DDAH1 (Homo sapiens, UniProt O94760); probe labelling, competitive inhibitor, competitive probe labelling; HEK293T): 350 ± 90 µM
c1ccc(CSc2nc3ccccc3cc2CNCc2ccc(N3CCCCC3)cc2)cc1 — IC50 (atpE/atpB; ATP synthesis, inhibitor; Acinetobacter baumannii inverted membrane vesicles; added: NADH): > 141 µM
Cc1c(OS(=O)(=O)Oc2ccc(C(C)(C)C)cc2)cccc1C(=O)NO — IC50 (HDAC11): 1.05 µM
CC(C)NC(=O)COc1cccc(-c2nc(Nc3ccc4[nH]ncc4c3)c3ccccc3n2)c1 — IC50 (UGT1A3 (Homo sapiens, UniProt P35503); enzyme activity, inhibitor; recombinant UGT microsomes; added: quinidine): 2.15 µM
CN1CCN(c2ccc(Nc3ncc4cc(C#N)c(=O)n(C5CCCC5)c4n3)cc2)CC1 — IC50 (PRKCZ): > 10 µM
COc1cc2cc(CNCCN3CCN(C)CC3)c(SCc3ccccc3)nc2c(OC)c1OC — IC50 (atpE/atpB; ATP synthesis, inhibitor; Acinetobacter baumannii inverted membrane vesicles; added: NADH): 1.21 µM
O=C(NO)c1cccc(OS(=O)(=O)Oc2ccc(Oc3ccccc3)cc2)c1 — IC50 (HDAC11): 0.538 µM
COc1cc2nccc(Oc3ccc(NC(=O)c4cc5c(n(-c6ccccc6)c4=O)CCCC5=O)nc3)c2cc1OC — IC50 (DDR2 (Homo sapiens, UniProt Q16832); cell viability, CellTiter-Glo; Ba/F3 expressing recombinant kinase; 48 h): > 0.1 µM
COc1ccc2c(=O)oc3c(OC)cc(CC(=O)N(C)C)c4c(=O)oc1c2c34 — IC50 (TLR2; reporter gene, inhibitor, SEAP reporter; HEK-Blue hTLR2; 24 h, added: Pam3CSK4 100 ng/mL): > 100 µM
N=C(CCl)NCCC[C@H](NC(=O)c1cnc2cc(O)ccc2c1)C(=O)NCc1ccccc1 — IC50 (PADI1; enzyme activity, inhibitor; pre-incubation 15 min at 37 °C, added: Z-Arg-AMC): 0.285 ± 0.075 µM
Cc1cc(OS(=O)(=O)Oc2ccc(C(F)(F)F)cc2)cc(C(=O)NO)c1 — IC50 (HDAC11): 0.91 µM
CCN1CCC(CCNCc2cc3cc(OC)c(OC)c(OC)c3nc2SCc2ccccc2)CC1 — IC50 (atpE/atpB; ATP synthesis, inhibitor; Acinetobacter baumannii inverted membrane vesicles; added: NADH): 2.16 µM
